Experimental data of several laboratories.
Lines come from different studies, so protocols differ. “And” joins repeats or separate records; there may be more than shown. ± marks the error that the study gave.
Chain of UniProt P48067 (whole entry, looked up): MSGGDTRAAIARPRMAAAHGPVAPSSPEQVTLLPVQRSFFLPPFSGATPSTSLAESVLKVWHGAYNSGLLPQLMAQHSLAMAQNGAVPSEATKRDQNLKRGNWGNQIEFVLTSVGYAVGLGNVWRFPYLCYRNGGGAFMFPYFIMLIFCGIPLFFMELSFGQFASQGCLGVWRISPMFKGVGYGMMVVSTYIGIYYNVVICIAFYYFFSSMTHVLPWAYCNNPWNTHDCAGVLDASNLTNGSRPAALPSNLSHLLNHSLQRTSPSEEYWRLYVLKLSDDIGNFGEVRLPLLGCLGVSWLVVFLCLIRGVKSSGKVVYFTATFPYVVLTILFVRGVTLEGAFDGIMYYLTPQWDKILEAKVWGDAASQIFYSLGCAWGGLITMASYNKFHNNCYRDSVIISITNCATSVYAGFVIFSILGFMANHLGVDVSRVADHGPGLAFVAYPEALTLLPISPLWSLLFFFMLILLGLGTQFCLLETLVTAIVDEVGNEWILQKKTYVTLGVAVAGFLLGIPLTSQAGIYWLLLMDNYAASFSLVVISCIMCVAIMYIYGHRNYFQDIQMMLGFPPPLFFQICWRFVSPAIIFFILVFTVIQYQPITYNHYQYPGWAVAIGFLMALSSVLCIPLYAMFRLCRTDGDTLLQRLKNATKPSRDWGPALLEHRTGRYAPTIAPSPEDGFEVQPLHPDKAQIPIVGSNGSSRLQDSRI
Chain of UniProt Q64663 (whole entry, unmodified, looked up): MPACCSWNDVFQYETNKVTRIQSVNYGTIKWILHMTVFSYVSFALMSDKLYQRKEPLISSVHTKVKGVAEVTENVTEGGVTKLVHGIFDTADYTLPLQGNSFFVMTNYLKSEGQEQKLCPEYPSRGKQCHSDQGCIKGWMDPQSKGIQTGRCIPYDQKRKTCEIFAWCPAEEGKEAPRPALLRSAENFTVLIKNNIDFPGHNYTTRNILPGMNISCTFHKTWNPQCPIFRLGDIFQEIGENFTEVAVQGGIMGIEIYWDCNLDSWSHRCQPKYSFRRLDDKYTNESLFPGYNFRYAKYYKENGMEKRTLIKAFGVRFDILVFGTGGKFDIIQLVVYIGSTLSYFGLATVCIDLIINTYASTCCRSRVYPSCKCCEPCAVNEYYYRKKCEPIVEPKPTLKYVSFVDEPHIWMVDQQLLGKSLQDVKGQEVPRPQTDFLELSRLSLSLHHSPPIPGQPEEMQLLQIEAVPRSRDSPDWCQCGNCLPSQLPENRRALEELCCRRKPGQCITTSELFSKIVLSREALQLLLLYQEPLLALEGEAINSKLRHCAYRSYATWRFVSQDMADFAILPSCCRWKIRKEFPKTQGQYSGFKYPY

| Substance | target or system | assay | test system | setting | scale | measurement | value |
| --- | --- | --- | --- | --- | --- | --- | --- |
| GSGAGSETVV | human MAGI1-2/6 PDZ construct (MBP fusion) | surface plasmon resonance | peptide | concentration not given | higher = stronger binding | normalised SPR binding response | 19.4 normalised RU |
| methyl-β-cyclodextrin | SLC6A9 (Homo sapiens, UniProt P48067) | transport activity, [3H]glycine uptake | – | 2.5 mg/mL, 1 min, together with: glycine 150 µM | higher = more transport | glycine uptake rate | 50.6 a.u. and 37.8 a.u. and 37.4 a.u. and 40.5 a.u. |
| human HSC70 | – | co-immunoprecipitation | human RBC cytosol | DSSO crosslinker, unit not given, together with: Band 3 peptide 1-56 bait | reference: negative control | co-IP enrichment | 867 |
| insulin degludec | – | – | human | subcutaneous, 0.4 IU/kg, 1 FC level, single dose, reference formulation | – | terminal half-life | 14.1 ± 2.4 h |
| colistin | Salmonella enterica Enteritidis | broth microdilution | clinical isolate RKI 205/14 | – | – | MIC | 8 µg/mL |
| GSGAGICTIV | human MAGI1-3/6 PDZ construct (MBP fusion) | automated holdup | peptide, crude extract | concentration not given, corrected by standard peak, unit not given | reference: biotin control resin, higher = stronger binding | binding intensity | 0.135 |
| CCT6A | – | co-immunoprecipitation | human RBC cytosol | DMTMM crosslinker, unit not given, together with: Band 3 peptide 1-56 bait | reference: negative control | co-IP enrichment | 29100 |
| Polymyxin B | Staphylococcus aureus | DiSC3(5) fluorescence | – | concentration not given, 69 min | higher = more depolarisation | membrane depolarisation | 665 a.u. and 489 a.u. and 549 a.u. |
| ALLQWVDLV | Jurkat T cells expressing 1G4 TCR | NFAT-eGFP reporter, fluorescence microscopy | peptide | concentration not given, HLA-A*02:01 NY-ESO system | – | reporter activation | 0.0068% |
| ACEQNPIYWARYADWLFTTPLLLLDLALLVDADEGT | – | ex vivo fluorescence imaging | peptide, BALB/c mice, 4T1 tumour-bearing, muscle | intravenous, 5 nmol, 24 h post-injection | higher = more uptake | mean fluorescence intensity | 249 ± 23.2 a.u. |
| human delta-aminolevulinic acid dehydratase | – | co-immunoprecipitation | human RBC membrane | DMTMM crosslinker, unit not given, together with: Band 3 peptide 1-56 bait | reference: negative control | co-IP enrichment | 37.1 |
| BzATP | P2X purinoceptor 7 (P2rx7, Rattus norvegicus, UniProt Q64663, I214A/R125A) | ion current, agonist, two-electrode voltage clamp | Xenopus laevis oocytes | 3.7 µM | reference: highest concentration response | normalized current | 0.06 and 0.08 and 0.05 |
| hemoglobin beta | – | co-immunoprecipitation | human RBC cytosol | DMTMM crosslinker, unit not given, together with: Band 3 peptide 1-56 bait | reference: negative control | co-IP enrichment | 64800 |
| GSGAGKETEC | human MAGI1-2/6 PDZ construct (MBP fusion) | surface plasmon resonance | peptide | concentration not given | higher = stronger binding | normalised SPR binding response | 0 normalised RU |
| 11-deoxycorticosterone | human CYP11B2 | substrate, stopped-flow kinetics | – | 4-state closed model, together with: adrenodoxin 40-fold excess | – | rate constant k-1 | 602 min⁻¹ |
| DNA 1 CACTGGCCGTCTTACGGTCGCTCTGCTCGACG / DNA 2 CGACCGTAAGACGGCCAGTG (dsDNA; 20 bp, 3' 12 nt overhang) | RECQL 63-592 Y564A (Bos taurus, UniProt A0JN36) | fluorescence anisotropy | double-stranded DNA | together with: Mg2+ 3 mM | – | Kd | 60.8 ± 23.6 nM |
| GSGAGSETSV | human MAGI1-2/6 PDZ construct (MBP fusion) | surface plasmon resonance | peptide | concentration not given | higher = stronger binding | normalised SPR binding response | 0 normalised RU |
| ALLEWIDIV | Jurkat T cells expressing 1G4 TCR | NFAT-eGFP reporter, fluorescence microscopy | peptide | concentration not given, HLA-A*02:01 NY-ESO system | – | reporter activation | 0.00725% |
| ACEEQNPWARYLEWLFPTETLLLEL | – | ex vivo fluorescence imaging | peptide, BALB/c mice, 4T1 tumour-bearing, muscle | intravenous, 5 nmol, 24 h post-injection | higher = more uptake | mean fluorescence intensity | 191 ± 8.3 a.u. |
| GLFQWIVQA | Jurkat T cells expressing 1G4 TCR | NFAT-eGFP reporter, fluorescence microscopy | peptide | concentration not given, HLA-A*02:01 NY-ESO system | – | reporter activation | 0.0067% |

| Substance | target or system | assay | test system | setting | scale | measurement | value |
| --- | --- | --- | --- | --- | --- | --- | --- |
| thimet oligopeptidase | – | co-immunoprecipitation | human RBC membrane | DMTMM crosslinker, unit not given, together with: Band 3 peptide 1-56 bait | reference: negative control | co-IP enrichment | 251000 |
| Teicoplanin | – | – | QC solution | 2 days, 2–6 °C, high QC level | – | recovery | 101% |
| epoetin alfa | UT7/EPO | microarray, measured: MAFF mRNA (probe set 36711_at) | – | 5 U/mL, 90 min | reference: vehicle | mRNA level | 5.1 fold |
| human GAPDH | – | co-immunoprecipitation | human RBC cytosol | DSSO crosslinker, unit not given, together with: Band 3 peptide 1-56 bait | reference: negative control | co-IP enrichment | 836 |
| SLLEWVTQV | Jurkat T cells expressing 1G4 TCR | NFAT-eGFP reporter, flow cytometry | peptide | concentration not given, HLA-A*02:01 NY-ESO system | – | reporter activation | 0.15% |
| Peginesatide | UT7/EPO | microarray, measured: EGR1 mRNA (probe set 227404_s_at) | – | 20 nM, 90 min | reference: vehicle | mRNA level | 10.4 fold |
| TASPAKETSF | human SCRIB PDZ3-4 tandem (MBP fusion) | automated holdup | peptide, purified PDZ protein | concentration not given, unit not given | reference: biotin control resin, higher = stronger binding | binding intensity | 0.789 |
| milbemycin oxime | Saccharomyces cerevisiae | cell growth | Pdr5 deleted, Cdr1 overexpressed | 2^-9.966 µg/mL, together with: fluconazole 10 µg/mL | – | OD600 | 1.02 and 1.04 and 1.07 |
| MTVCNASQRQAHAQATAVSL | H2122 lung adenocarcinoma | phage binding output/input | peptide | – | reference: control phage | selectivity ratio | 4.8 ± 1.5 |
| SLLQWIAQV | Jurkat T cells expressing 1G4 TCR | NFAT-eGFP reporter, flow cytometry | peptide | concentration not given, HLA-A*02:01 NY-ESO system | – | reporter activation | 51.1% |
| human LDL receptor | – | co-immunoprecipitation | human RBC membrane | DSSO crosslinker, unit not given, together with: Band 3 peptide 1-56 bait | reference: negative control | co-IP enrichment | 0 |
| cotadutide | – | metabolomics, measured: hepatic aspartate | ob/ob mice on AMLN diet, NASH model, liver | dose not given | – | metabolite level | 1.11 ± 0.05 scaled intensity |
| QDEKVKESYV | human MAGI1-2/6 PDZ construct (MBP fusion) | surface plasmon resonance | peptide | concentration not given | higher = stronger binding | normalised SPR binding response | 16.2 normalised RU |
| human clusterin | – | co-immunoprecipitation | human RBC membrane | DMTMM crosslinker, unit not given, together with: Band 3 peptide 1-56 bait | reference: negative control | co-IP enrichment | 0 |
| ALQQWVTQV | Jurkat T cells expressing 1G4 TCR | NFAT-eGFP reporter, fluorescence microscopy | peptide | concentration not given, HLA-A*02:01 NY-ESO system | – | reporter activation | 25.9% |
| FNA / CGLSGLGVA-NH2 ([18F]FNA-labelled, C-amide) | – | ex vivo gamma counting | peptide, healthy mouse, muscle | 60 min post injection | – | tissue uptake | 0.19 %ID/g |
| ALFEWIPRV | Jurkat T cells expressing 1G4 TCR | NFAT-eGFP reporter, fluorescence microscopy | peptide | concentration not given, HLA-A*02:01 NY-ESO system | – | reporter activation | 0.016% |
| GSGAGKETRV | human SCRIB PDZ3-4 tandem (MBP fusion) | automated holdup | peptide, crude extract | concentration not given, corrected by standard peak, unit not given | reference: biotin control resin, higher = stronger binding | binding intensity | 0.815 |
| ALLEWVSQV | Jurkat T cells expressing 1G4 TCR | NFAT-eGFP reporter, flow cytometry | peptide | concentration not given, HLA-A*02:01 NY-ESO system | – | reporter activation | 0.22% |
| GGWVEKETYY | human MAGI1-2/6 PDZ construct (MBP fusion) | automated holdup | peptide, purified PDZ protein | concentration not given, unit not given | reference: biotin control resin, higher = stronger binding | binding intensity | 0.0743 |

A few entries again:
| Substance | target or system | assay | test system | setting | scale | measurement | value |
| --- | --- | --- | --- | --- | --- | --- | --- |
| methyl-β-cyclodextrin | SLC6A9 (Homo sapiens, UniProt P48067) | transport activity, [3H]glycine uptake | – | 2.5 mg/mL, 1 min, together with: glycine 150 µM | higher = more transport | glycine uptake rate | 50.6 a.u. and 37.8 a.u. and 37.4 a.u. and 40.5 a.u. |
| Polymyxin B | Staphylococcus aureus | DiSC3(5) fluorescence | – | concentration not given, 69 min | higher = more depolarisation | membrane depolarisation | 665 a.u. and 489 a.u. and 549 a.u. |
| milbemycin oxime | Saccharomyces cerevisiae | cell growth | Pdr5 deleted, Cdr1 overexpressed | 2^-9.966 µg/mL, together with: fluconazole 10 µg/mL | – | OD600 | 1.02 and 1.04 and 1.07 |
| SLLQWIAQV | Jurkat T cells expressing 1G4 TCR | NFAT-eGFP reporter, flow cytometry | peptide | concentration not given, HLA-A*02:01 NY-ESO system | – | reporter activation | 51.1% |
